# Experimental data gathered from unrelated publications.
# Protocols differ between the studies behind these lines. ± marks the error that the study gave.
Structure (SMILES),cell line,test,conditions,CC50 [µM]
CC(C)C[C@@H]1NC(=O)[C@@H](Cc2c[nH]c3ccccc23)NC(=O)[C@H](CCCN)NC(=O)[C@@H](CO)NC(=O)[C@H](CCC(N)=O)NC(=O)[C@@H](CCC(=O)O)NC(=O)[C@H](CO)NC(=O)[C@@H](Cc2c[nH]c3ccccc23)NC1=O,NCI cell lines,cytotoxicity,,> 40
CC(C)C[C@H](NC(=O)OCc1ccccc1)C(=O)N[C@@H](CC1CCNC1=O)C(O)S(=O)(=O)O (stereo partly drawn),MRC-5,,5 days,> 50
C=CCCCC(NC(=O)[C@H](CCC(N)=O)NC(=O)[C@H](CCC(N)=O)NC(=O)[C@H](CC(C)C)NC(=O)C(CCCC=C)NC(=O)[C@H](CCCNC(=N)N)NC(=O)[C@@H](NC(=O)[C@@H](NC(=O)[C@H](C)NC(=O)[C@H](CCC(=O)O)NC(C)=O)[C@@H](C)CC)[C@@H](C)CC)C(=O)N[C@@H](CC(C)C)C(=O)N[C@@H](Cc1ccccc1)C(=O)N[C@H](C(=O)N[C@@H](Cc1c[nH]cn1)C(=O)N[C@@H](Cc1ccccc1)C(=O)N[C@@H](CCCNC(=N)N)C(=O)N[C@H](C(=O)NCC(N)=O)[C@@H](C)CC)[C@@H](C)CC (stereo partly drawn),MT4 (mock-infected),MTT,,> 10
O=C(CCCCCCCCCCc1ccc(O)c(O)c1)c1c(O)cccc1O,Vero E6/TMPRSS2,MTT,,32
CC[C@H](C)[C@@H]1NC(=O)C(NC(=O)[C@H](C)NC(=O)[C@H](CCC(=O)O)NC(C)=O)CCCC=CCCCC(C(=O)N[C@@H](CCC(N)=O)C(=O)N[C@@H](CCC(N)=O)C(=O)N[C@@H](CC(C)C)C(=O)N[C@@H](CC(C)C)C(=O)N[C@@H](Cc2ccccc2)C(=O)N[C@H](C(=O)N[C@@H](Cc2c[nH]cn2)C(=O)N[C@@H](Cc2ccccc2)C(=O)N[C@@H](CCCNC(=N)N)C(=O)N[C@H](C(=O)NCC(N)=O)[C@@H](C)CC)[C@@H](C)CC)NC(=O)[C@H]([C@@H](C)CC)NC(=O)[C@H](CCCNC(=N)N)NC1=O (stereo partly drawn),MT4 (mock-infected),MTT,,> 10
C=C1C(=O)OC2CC(C)C3C=CC(=O)C3(C)C(O[Si](C)(C)C(C)C)C12 (stereo not drawn),BALB/c mouse splenocytes,propidium iodide flow cytometry,"48 h, 10% fetal calf serum",1.1
C1=[N+]2CCCC[N+]3=Cc4ccc5[n]4[Au-]23[n]2c1ccc2-c1nc2ccccc2nc1-5.F[P-](F)(F)(F)(F)F,NCI60 leukemia cell lines,,mean of cell lines,> 100
CC[C@H](C)[C@H](NC(=O)[C@H](CCC(=O)O)NC(=O)[C@H](CCC(=O)O)NC(=O)[C@H](CO)NC(=O)[C@H](CCCCN)NC(=O)[C@H](CCCCN)NC(=O)[C@H](CC(C)C)NC(=O)[C@H](CC(C)C)NC(=O)[C@H](CCC(=O)O)NC(=O)[C@H](CCC(=O)O)NC(=O)[C@H](C)NC(=O)[C@H](CCCCN)NC(=O)[C@H](CCCCN)NC(=O)[C@H](CC(C)C)NC(=O)[C@H](CCCCN)NC(=O)[C@H](CCC(=O)O)NC(=O)[C@H](CCC(=O)O)NC(=O)[C@H](C)NC(=O)[C@H](CCCCN)NC(=O)[C@H](CCCCN)NC(=O)[C@H](CC(C)C)NC(=O)[C@H](CC(N)=O)NC(=O)[C@H](CCC(=O)O)NC(=O)[C@H](CCC(=O)O)NC(=O)[C@@H](NC(=O)[C@H](CC(=O)O)NC(=O)[C@H](CC(C)C)NC(C)=O)C(C)C)C(=O)N[C@@H](CC(C)C)C(=O)N[C@@H](CCCCN)C(=O)N[C@@H](CCCCN)C(N)=O,B95a,MTT,"8 days, 37 °C",> 10
CC(=O)Oc1ccc(CCCCCCCCC(=O)c2c(OC(C)=O)cccc2OC(C)=O)cc1OC(C)=O,Vero E6/TMPRSS2,MTT,,16
CSCC[C@@H](C=O)NC(=O)[C@H](CC(C)C)NC(=O)[C@H](CC(C)C)NC(C)=O,MRC-5,,5 days,> 100
O=C(CCCCCCc1ccc(O)c(O)c1)c1c(O)cccc1O,Vero E6/TMPRSS2,MTT,,41
CC(C)C[C@H](NC(=O)c1cc2c(F)ccc(F)c2[nH]1)C(=O)N[C@@H](C[C@@H]1CCNC1=O)C(=O)c1nc2c(F)cccc2s1,VeroE6,WST-8,3 (unit not given),> 100
C=C1C(=O)OC2CC(C)C3C=CC(=O)C3(C)C(O[Si](C)(C)C)C12 (stereo not drawn),BALB/c mouse splenocytes,propidium iodide flow cytometry,"48 h, 10% fetal calf serum",0.4
CC[C@H](C)[C@H](NC(=O)[C@H](CCC(=O)O)NC(=O)[C@H](CCC(=O)O)NC(=O)[C@H](CO)NC(=O)[C@H](CCCCN)NC(=O)[C@H](CCCCN)NC(=O)[C@H](CC(C)C)NC(=O)[C@H](CC(C)C)NC(=O)[C@H](CCC(=O)O)NC(=O)[C@H](CCC(=O)O)NC(=O)[C@H](C)NC(=O)[C@H](CCCCN)NC(=O)[C@H](CCCCN)NC(=O)[C@H](CC(C)C)NC(=O)[C@H](CCCCN)NC(=O)[C@H](CCC(=O)O)NC(=O)[C@H](CCC(=O)O)NC(=O)[C@H](C)NC(=O)[C@H](CCCCN)NC(=O)[C@H](CCCCN)NC(=O)[C@H](CC(C)C)NC(=O)[C@H](CC(N)=O)NC(=O)[C@H](CCC(=O)O)NC(=O)[C@H](CCC(=O)O)NC(=O)[C@@H](NC(C)=O)C(C)C)C(=O)N[C@@H](CC(C)C)C(=O)N[C@@H](CCCCN)C(=O)N[C@@H](CCCCN)C(N)=O,B95a,MTT,"8 days, 37 °C",> 10
N=C(N)NCCC[C@H]1NC(=O)[C@H](CCCN)NC(=O)[C@@H](Cc2c[nH]cn2)NC(=O)[C@H](Cc2ccc(O)cc2)NC(=O)[C@@H](Cc2ccc(O)cc2)NC(=O)[C@H](Cc2ccccc2)NC(=O)[C@@H](Cc2c[nH]c3ccccc23)NC(=O)[C@H](CO)NC1=O,NCI cell lines,cytotoxicity,,7.2
Clc1cc(Cl)cc(CCCN2CCCC3=CC4CC(CN5CCCCC45)C32)c1 (stereo not drawn),Vero E6,,,110
OC[C@H]1[C@@H](O)[C@@H](O)CN1Cc1ccccc1,MRC-5,MTS,72 h,> 200
CC(C)C[C@H](NC(=O)c1cc2c(F)ccc(F)c2[nH]1)C(=S)N[C@@H](C[C@@H]1CCNC1=O)C(=O)c1nc2cc(F)ccc2s1,VeroE6,WST-8,3 (unit not given),38 ± 1.1
O=c1cc[s+]([O-])c2ccccc12 (racemic),U-937,MTT,72 h,966
COc1ccc(F)c2[nH]c(C(=O)N[C@@H](CC(C)C)C(=O)N[C@@H](C[C@@H]3CCNC3=O)C(=O)c3nc4ccccc4s3)cc12,VeroE6,WST-8,3 (unit not given),> 100
CCCCCCCCCC1=CC(=O)c2ccccc2S1(=O)=O,U-937,MTT,72 h,27.9
CCCCNCC(O)Cn1c2ccc(Cl)cc2c2cc(Cl)ccc21 (stereo not drawn),WI-38,"cell growth or viability, MTT",,7.93
C=C1C(=O)OC2C1CCC(C)=C1C(OC(=O)Nc3ccc(C(F)(F)F)cc3)CC(C)(O)C12 (stereo not drawn),M9-ENL1,"cell viability, MTT",24 h,4.3 ± 1
"O=c1cc[s+]([O-])c2ccc(Cl)cc12 (single isomer, unassigned; (+))",U-937,MTT,72 h,636

# For quick reference, copied from above:
Structure (SMILES),cell line,test,conditions,CC50 [µM]
C=C1C(=O)OC2CC(C)C3C=CC(=O)C3(C)C(O[Si](C)(C)C(C)C)C12 (stereo not drawn),BALB/c mouse splenocytes,propidium iodide flow cytometry,"48 h, 10% fetal calf serum",1.1
O=C(CCCCCCc1ccc(O)c(O)c1)c1c(O)cccc1O,Vero E6/TMPRSS2,MTT,,41
C=C1C(=O)OC2CC(C)C3C=CC(=O)C3(C)C(O[Si](C)(C)C)C12 (stereo not drawn),BALB/c mouse splenocytes,propidium iodide flow cytometry,"48 h, 10% fetal calf serum",0.4
